Experimental data of several laboratories.
“And” joins repeats or separate records; there may be more than shown. ≈ marks a conversion by molar mass, not a printed value.

O=C(C[Se]C(=O)c1cccs1)Nc1cccc(C(F)(F)F)c1
TGI (NCI60 breast subpanel mean; cell growth): 4110 nM

Cc1cc(C)c2cc(C(=O)NC3CCCCCC3)[nH]c2c1
IC50 (Mycobacterium tuberculosis; bacterial growth, inhibitor; mmpL3-TetON): 50 nM

CC(C)CC(C(=O)N1CC2(CC1C#N)C(=O)Nc1ccccc12)N(C)C(=O)c1cc2c(F)cc(F)c(F)c2[nH]1 (stereo not drawn)
inhibition (human coronavirus 229E; cytopathic effect; concentration not given): 0%

COc1ccccc1-c1n[nH]c2nc(NC3CCN(C(=O)Cc4ccc(F)cc4F)CC3)ncc12
relative abundance (bead binding, competition bead pull-down, refers to: LINJ.35.3130; Leishmania donovani axenic amastigote extract; 10 µM; relative to: vehicle): 1.02

CCCCCC1=C(NCC)C(=O)C(C/C=C(\C)CCC=C(C)C)=C(O)C1=O
normalised enrichment score (RNA-seq GSEA, refers to: HALLMARK_INTERFERON_GAMMA_RESPONSE; mouse, A53T α-synuclein lesioned, striatum; dose not given; relative to: untreated A53T lesioned mice, direction not given): 2.99

O=C(C[Se]C(=O)c1ccco1)Nc1cccc(C(F)(F)F)c1
GI50 (NCI60 ovarian subpanel; cell growth, inhibitor; five-dose): 2990 nM

CC[C@H](C)[C@@H]1NC(=O)CNC(=O)[C@@H]2Cc3c([nH]c4ccccc34)SC[C@H](NC(=O)CNC1=O)C(=O)N[C@@H](CC(=O)NCc1cn(CCNC(=O)OCCSSCCC(=O)NCc3cn(CC(=O)N[C@H](Cc4ccccc4)C(=O)N[C@H]4CSSC[C@@H](C(=O)N[C@H](C(=O)O)[C@@H](C)O)NC(=O)[C@H]([C@@H](C)O)NC(=O)[C@H](CCCCN)NC(=O)[C@@H](Cc5c[nH]c6ccccc56)NC(=O)[C@H](Cc5ccc(O)cc5)NC4=O)nn3)nn1)C(=O)N1C[C@H](O)C[C@H]1C(=O)N[C@@H]([C@@H](C)[C@@H](O)CO)C(=O)N2
remaining fluorescence (AR-42J; receptor binding, blocking agent, fluorescence microscopy; 250 nM, 30 min, 37 °C, added: TATE-SS-rhodamine 5 nM; relative to: tracer alone): 5%

Cc1ccc2nc(C)c(C(=O)C(=O)NCc3ccccc3)n2c1
inhibition zone (Mycolicibacterium vaccae; microbial growth; IMET10670; 2 mM): 21 mm

COc1ccccc1-c1ccncc1C(=O)Nc1nnc(OCc2ccc(Cl)cc2)s1
colony survival (DLD-1 BRCA2-/-; 1 µM, mean of 3 replicates; relative to: untreated): 38.9%

Cc1ccc(N2CC3CC(C2)N3C)cc1C(=O)NC1(c2ccc3c4c(cccc24)C(=O)N3C)CC1
inhibition (PDCoV-PLpro; enzyme activity, inhibitor; 100 µM): 57.9% and 47.8%

CN1C(=O)C(C2C3=C(CCCC3=O)Oc3ccc(Br)cc32)C(=O)N(C)C1=O (stereo not drawn)
mean lipid content (3T3-L1 mature adipocytes; lipolysis, Oil Red O staining; IC20): 0.594 OD492

Cc1ccc(NS(=O)(=O)c2c(C(=O)N3CCCCCC3)c(C)n(C)c2C)c(Cl)c1
infection (Human alphaherpesvirus 1; viral infection; HaCaT; 33.33 µM, 36 h; relative to: untreated): 104% and 108% and 130%

CCN(CC)C(=O)[C@@H]1C=C2c3cccc4c3c(cn4C(=O)c3ccco3)C[C@H]2N(C)C1
ED50 (head-twitch response, magnetometer detection; mouse C57BL/6J male; intraperitoneal): 0.466 µmol/kg

Cc1cc(C(=O)Nc2nc3cccc(C)c3n2[C@H]2CCCCN(C(=O)/C=C/CN(C)C)C2)ccn1
cells in S phase (Trypanosoma brucei; propidium iodide flow cytometry; bloodstream form; concentration not given, 48 h): 18.3%

Nc1ncc(-c2cc(-c3cnn(CC(F)(F)F)c3)ncc2F)nc1C(=O)NC1CNCC(F)C1 (stereo not drawn)
remaining binding (KIT V559D V654A; KINOMEscan; 1 µM): 35%

O=C(O)c1ccc(-c2nc(-c3ccccc3Cl)c3sccn23)cc1
CD61-positive cells (HEL; flow cytometry; 0.01 mM): 76%

[2H]C([2H])([2H])C1(C([2H])([2H])[2H])NC(=O)N(c2ccc(F)c(C(F)(F)F)c2)C1=O
ED50 (Schistosoma mansoni; juvenile stage, infected mice; oral, single dose): 77 mg/kg

Cc1cc(Oc2nc(N3CC[C@@H](c4ccncc4)C3)ncc2F)[nH]n1
normalised growth (Mycobacterium tuberculosis; THP-1, H37Rv non-replicating; 0.09491 µM, day 4): 20.8% and 7.55%

CC[C@H](C)[C@H](NC(=O)[C@H](CCCNC(=N)N)NC(=O)[C@H](CO)NC(=O)[C@H](Cc1ccc(O)cc1)NC(=O)[C@@H](NC(=O)[C@@H](NC(=O)[C@H](C)NC(=O)CNC(=O)[C@H](CCCCN)NC(=O)[C@H](CCCCN)NC(=O)CCNC(=O)CCCCCNC(=O)[C@H](CCCNC(=N)N)NC(=O)CCCCCNC(=O)[C@H](CCCNC(=N)N)NC(=O)[C@H](CCCNC(=N)N)NC(=O)CCCCCNC(=O)[C@H](CCCNC(=N)N)NC(=O)[C@H](CCCNC(=N)N)NC(=O)CCCCCNC(=O)[C@H](CCCNC(=N)N)NC(=O)[C@H](CCCNC(=N)N)NC(=O)CCCCCNC(=O)[C@@H](N)CCCNC(=N)N)C(C)C)[C@@H](C)O)C(=O)N[C@@H](CO)C(=O)NCC(=O)N[C@@H](CCC(N)=O)C(=O)N[C@@H](Cc1ccc(O)cc1)C(=O)N[C@@H](CCCCN)C(=O)O
MIC (broth microdilution; ATCC 33591 resistant strain, Mueller-Hinton broth): 24 µM (≈ 85.7 µg/mL)

CC(C)(C)C(=O)OCOP(=O)(OCOC(=O)C(C)(C)C)C1CCCN(O)C1=O (stereo not drawn)
CC50 (786-0): > 100000 nM

CNCCO.O=C(O)C(Cl)Cl
inhibition (Chenopodium album; herbicidal activity; 15 mg/mL, 21 days, post-emergence greenhouse): 0%

CCN(CC)C(=O)[C@@H]1C=C2c3cccc4c3c(cn4C(=O)c3cccs3)C[C@H]2N(C)C1
head-twitch response count (magnetometer; C57BL/6J mouse, male; intraperitoneal, 3 mg/kg, 30 min session): 48.4

CC1(C)CC(=O)C2=C(C1)Oc1ccccc1C2C1C(=O)NC(=O)NC1=O (stereo not drawn)
mean lipid content (3T3-L1 mature adipocytes; lipolysis, Oil Red O staining; IC20): 0.602 OD492

COc1ccccc1-c1n[nH]c2nc(N[C@H]3CC[C@H](NS(=O)(=O)CC(C)C)CC3)ncc12
relative abundance (bead binding, competition bead pull-down, refers to: LINJ.05.0350; Leishmania donovani extract; 10 µM; relative to: vehicle): 1.34

For quick reference, copied from above:
[2H]C([2H])([2H])C1(C([2H])([2H])[2H])NC(=O)N(c2ccc(F)c(C(F)(F)F)c2)C1=O
ED50 (Schistosoma mansoni; juvenile stage, infected mice; oral, single dose): 77 mg/kg

Cc1cc(Oc2nc(N3CC[C@@H](c4ccncc4)C3)ncc2F)[nH]n1
normalised growth (Mycobacterium tuberculosis; THP-1, H37Rv non-replicating; 0.09491 µM, day 4): 20.8% and 7.55%

CC[C@H](C)[C@H](NC(=O)[C@H](CCCNC(=N)N)NC(=O)[C@H](CO)NC(=O)[C@H](Cc1ccc(O)cc1)NC(=O)[C@@H](NC(=O)[C@@H](NC(=O)[C@H](C)NC(=O)CNC(=O)[C@H](CCCCN)NC(=O)[C@H](CCCCN)NC(=O)CCNC(=O)CCCCCNC(=O)[C@H](CCCNC(=N)N)NC(=O)CCCCCNC(=O)[C@H](CCCNC(=N)N)NC(=O)[C@H](CCCNC(=N)N)NC(=O)CCCCCNC(=O)[C@H](CCCNC(=N)N)NC(=O)[C@H](CCCNC(=N)N)NC(=O)CCCCCNC(=O)[C@H](CCCNC(=N)N)NC(=O)[C@H](CCCNC(=N)N)NC(=O)CCCCCNC(=O)[C@@H](N)CCCNC(=N)N)C(C)C)[C@@H](C)O)C(=O)N[C@@H](CO)C(=O)NCC(=O)N[C@@H](CCC(N)=O)C(=O)N[C@@H](Cc1ccc(O)cc1)C(=O)N[C@@H](CCCCN)C(=O)O
MIC (broth microdilution; ATCC 33591 resistant strain, Mueller-Hinton broth): 24 µM (≈ 85.7 µg/mL)

CC(C)(C)C(=O)OCOP(=O)(OCOC(=O)C(C)(C)C)C1CCCN(O)C1=O (stereo not drawn)
CC50 (786-0): > 100000 nM
